{"data": "Assay results pooled from the literature", "cell line": "Caco-2", "note": "Lines come from different studies, so protocols differ."}
{"Structure (SMILES)": "N#Cc1ccc(-c2cc(=O)c3ccc4[nH]c(C(F)(F)F)nc4c3o2)cc1", "efflux ratio": 3.6}
{"Structure (SMILES)": "C[C@H]1O[C@@H](O[C@H]2[C@@H](O)C[C@H](O[C@H]3[C@@H](O)C[C@H](O[C@H]4CC[C@@]5(C)[C@H](CC[C@@H]6[C@@H]5C[C@@H](O)[C@]5(C)[C@@H](C7=CC(=O)OC7)CC[C@]65O)C4)O[C@@H]3C)O[C@@H]2C)C[C@H](O)[C@@H]1O", "baseline": "without over with verapamil", "efflux ratio": 62.8}
{"Structure (SMILES)": "CC1(C)NC(=O)Cn2c1nc(-c1ccc(F)cc1)c2Nc1ccc(Cl)c(F)c1", "baseline": "A-B over B-A", "efflux ratio": 0.96}
{"Structure (SMILES)": "C#Cc1c(F)ccc2cc(O)cc(-c3ncc4c(N5CC6CCC(C5)N6)nc(OC[C@@]56CCCN5C[C@H](F)C6)nc4c3F)c12", "baseline": "without over with verapamil", "efflux ratio": 0.509}
{"Structure (SMILES)": "O=C(Nc1ccc(CN2CCOCC2)c(C(F)(F)F)c1)c1ccc(C#Cc2cccc3cnccc23)cn1", "baseline": "Papp B-A over Papp A-B", "efflux ratio": 0.627}
{"Structure (SMILES)": "CC(C)C[C@@H]1NC(=O)[C@H](C)NC(=O)[C@H](Cc2ccccc2)NCC2=CC=C(CN(C)C1=O)O2", "efflux ratio": 24}
{"Structure (SMILES)": "CCOc1cc(-c2nncn2C)ccc1Nc1ncc2cc(C)nc(NCC(C)(C)C)c2n1", "concentration": "10 µM", "efflux ratio": 0.79}
{"Structure (SMILES)": "CC1(C)CCC2(CC1)N[C@@H](C(=O)N[C@@H]1CC[C@@H](C(N)=O)OC1)[C@H](c1ccnc(Cl)c1F)[C@]21C(=O)Nc2cc(Cl)ccc21", "concentration": "1 µM", "time": "120 min", "with": "elacridar 5 µM", "baseline": "B-A over A-B", "efflux ratio": 0.68}
{"Structure (SMILES)": "O=C1c2cccc(O)c2C(=O)c2c(O)cccc21", "concentration": "100 µg/mL", "time": "2 h", "baseline": "B-A over A-B", "efflux ratio": "> 2"}
{"Structure (SMILES)": "Cc1ccc(Nc2c(-c3ccc(F)cc3)nc3n2CCNC3(C)C)cc1", "baseline": "A-B over B-A", "efflux ratio": 2.24}
{"Structure (SMILES)": "Cc1cc(C)c(CNC(=O)c2cc(Cl)c3c(c2C)O[C@@](C)([C@H]2CC[C@H](N(C)C)CC2)O3)c(=O)[nH]1", "concentration": "10 µM", "with": "verapamil 100 µM", "efflux ratio": 1.13}
{"note": "A few entries again:"}
{"Structure (SMILES)": "C[C@H]1O[C@@H](O[C@H]2[C@@H](O)C[C@H](O[C@H]3[C@@H](O)C[C@H](O[C@H]4CC[C@@]5(C)[C@H](CC[C@@H]6[C@@H]5C[C@@H](O)[C@]5(C)[C@@H](C7=CC(=O)OC7)CC[C@]65O)C4)O[C@@H]3C)O[C@@H]2C)C[C@H](O)[C@@H]1O", "baseline": "without over with verapamil", "efflux ratio": 62.8}
